Published values of several laboratories.
A part holds a random share of what one study measured. Substitutions count along the parent as printed.

Sample 1
Target: Hepatocyte nuclear factor 3-alpha (Foxa1, Mus musculus, UniProt P35582, residues 1-468, full length assumed)
Technique: EMSA with sequencing
Form: double-stranded DNA, one strand shown
Medium: in vitro
Concentration: 10 and 20 nM
Setting: whole designed probe, mean of two concentrations, ends assumed
Relative to: negative control set to 0
Direction: higher = stronger binding
All sequences stand within: GTGAGCGGTGCCCATTGATGGGGAAC … TTTCACTGGGATCGTGGGGAC
Residues (chain): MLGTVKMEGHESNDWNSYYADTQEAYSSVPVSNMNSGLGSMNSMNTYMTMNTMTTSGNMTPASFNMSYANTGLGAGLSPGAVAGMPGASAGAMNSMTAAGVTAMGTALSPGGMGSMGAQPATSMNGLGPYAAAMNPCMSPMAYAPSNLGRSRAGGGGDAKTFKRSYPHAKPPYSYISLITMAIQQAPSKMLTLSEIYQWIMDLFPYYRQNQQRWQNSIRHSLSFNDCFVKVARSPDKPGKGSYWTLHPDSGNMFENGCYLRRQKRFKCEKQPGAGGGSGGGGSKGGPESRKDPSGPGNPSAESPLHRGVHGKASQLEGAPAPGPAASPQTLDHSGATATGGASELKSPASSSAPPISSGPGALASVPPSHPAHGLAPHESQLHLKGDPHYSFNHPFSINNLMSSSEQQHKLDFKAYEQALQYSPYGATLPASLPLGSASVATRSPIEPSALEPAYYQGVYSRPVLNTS
`CAGACTTCAAGTTAACACTTATTTTCCTGGTTTCTAAAGACCTTTCATTTTCTTTAGGAATTATTTCAGGGATCTTCTTGAGTAAATCTTTATGTTTACTTAGCAGCAACTCTAGATTTGAAAGCTAGAATTGTTTCCTTAGTTTTTCTTCCAAGGATTCTTCTTGGTATGAATATTGCAGAGCGTCTTTAGT`: “normalised bound fraction” 0.497 ratio.
`CCTCTGATTTCTATAGCATGTTGTTAGTCCCTATATTTAACACATTGTTTCAGCCCTGTAGTATATTGAGCTACTGTTTTCCCTGCCCCATATGTCATCTTATTTAATAACTAGCATTTGTGGGGTTTATATTTTTCCAAATTATTTCAAATGTTTATTGATTTTACTCTTCACAGCATAAATATAAAGTGAA`: “normalised bound fraction” 0.273 ratio.
`GCTCTGGGCAGTCACCCAGGTACCACAAAATCCCTATGGGTGTGCATCTCCTTTGTTACCCATGTGTATACTCCCTCCCTGACGTCAAAGCCATGTTTGCTCAGCTTGATGAAAATGTGTTTCTTGAAAGCCACATTCTTTTCCTTTTCTGAGCCAGTGAGGTTTCTGCAGAGCTCATGGTGCTGATGTTTCC` — result for “normalised bound fraction”: 0.165 ratio.
Under “normalised bound fraction”, `TGAAATTTAGGAAAAGTTAATATGAATGAGAGAAAAATAACCAAAAAGAAATAGCAATTATTCCTTACTAATGTTATTTTTCTGCCTGCAAAGTAATCTTGGTAAAAGAAATTTTTCACTTTAAGTTATGAAAGTTGACACTATTATCTATAATTTTTACATGTGCCTCTATTATATGTCCTCTAGTCTTTCA` is recorded as 0.00269 ratio.
For `TTTACTTCTTATATTTCACTCTGGGTTGACCCTAGGGAACATAAAACCAGATTCTACTGATCTTCCCTTATCAGATGTTTGGTTTTCTCTAAGCAATCTTCTATCTGGGGAGCATGACAGGGTCATGACAGATTTCCCAGTGGGGACTGTGGAGACTGGCTGGAAGGCTATGAGTGAGTGAGCTGACATCCAC`, “normalised bound fraction” read 0.0335 ratio.
`ATCTTCCCCCTCTTCCTTGCCCCACCAGCTCACCTTCCCGGGTTATTTGCAGATAGGAAAATAAATAAAGCCGGCATTCGTTAACCCTCTTCTGGCGCAAACTGCTGTTTGCTCTGGATGAATCATGGTCCTTAGGCTCGGCCAGGCTCCGGGAGAGCAAAGCACCGTGTCAGGGCCATGATCCGGGGTGGCC` — result for “normalised bound fraction”: 0.331 ratio.
Under “normalised bound fraction”, `AGGGACACTCAGAGAGTGAGGGAAGAAGGCTCTGAAGATCTCACTACTGCAGAGCAATCTGCTCCATAGAGAGATCTTCCTCACCCCAGAGAAAGATTACTCTATTAAATGTTAGAAGAGCATGTGTAATTTGCAAGCTTATTTAGTTTTCAGTTCCACCTCCCTTGGAAAGGAAAAGTGATACAATCATCTT` is recorded as 0.0204 ratio.
`TTAAGTGAAATCAACTGAAACCTTACTTTTTTTTGCTTTTATACCTAAAATAGAGGATTTAGATATATTTTCTAGGAACGATGATGTAATATGTAAACAAGGAATTTTGGTAATGTTTGAAATATTTTCTCATGGGGACACACCACTAAATTTGTCACCTCTAAAACAGTACTTAGGTTAAATGCTTTTTAAA` — result for “normalised bound fraction”: 0.293 ratio.

Sample 2
Target: RNA binding protein fox-1 homolog 2, RRM domain, GST-SBP tag (RBFOX2, Homo sapiens, UniProt O43251-10, residues 100-194)
Technique: RNA Bind-n-Seq
Form: RNA
Medium: in vitro
Concentration: 365 nM
Setting: natural RNA segment, single round, ends assumed
Relative to: no-protein control
Direction: higher = stronger binding
All sequences stand within: GGGAGUUCUACAGUCCGACGAUC … UGGAAUUCUCGGGUGCCAA
Residues (chain): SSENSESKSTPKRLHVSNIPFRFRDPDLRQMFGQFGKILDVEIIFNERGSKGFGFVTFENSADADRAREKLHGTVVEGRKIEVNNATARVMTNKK
`UAAAUUCUUCCUAAGUUCUCUGCUCAUUAAUCUUCAGACCACAGUUACUAAAACUGUGGCUUAGUAGUAAGCUGAGGGCUAAAUGAGAGACUGCUAUUCUAAGAGCAUCA`: “RBNS enrichment (R)” 0.319.
For `GCAGGAACCCUGGAAGAGAAGCGCACAUUUGGGAAGAGCACAUGCAGAUCCAGGCCUGUGGCUCGGCCCCGCUCAGCCCCAUAGUGGGUGGCAGCAGUGCUCUCUCCUGC`, “RBNS enrichment (R)” read 0.389.
`CUGUUGGAAAGGGAAAAAUUCACCAUAUCCAAGGGGAGAGACGAUGGGCUGGGUUUGUUUACUCCAACUUCCCUUCUACACCCCUCCUGCAGGACAGUACGAUUUGGGGA` — result for “RBNS enrichment (R)”: 0.354.
`AGGAAAACCAUGACAGGCAAAUGCAUUUCCUCUGGAGUUUGAGACCCUGACAAACAACAGGUGGCAUCUGGUGUGCUGUUCUUGAGUUUUCGUUUAGGAUUAGUUGAGUU` — result for “RBNS enrichment (R)”: 0.448.
`UGCACGCACUGCGUAGAGCCUGGAAGGGAAGUGAGAAACCAGCCGACCGGCCCUGCCCCUCUUCCCGGGAUCACUUAAUGAACCACGUGUUUUGACAUCAUGUAAACCUA` — result for “RBNS enrichment (R)”: 0.272.
For `GUAAGGCUAGAGCCCAGGUCUGCCGACACCCUGUGCUUGUUGCACACUUGAUUUGCUAAGGCUGGAGACAGGCACCAUUGCCAUGGGGCUGGUCCUAGUCACUGGCCGAG`, “RBNS enrichment (R)” read 0.483.
`AUCCUGGAGAACAAGUUACCAUGCAAGGAGUUGACAUCAGUUGUUAAGUGAGGCCCAUUCUUGUUUUUACAUCGGUCCUUUGUGGUUUUUCUGGGCCAGCAGAGAUUCUG`: “RBNS enrichment (R)” 0.364.
`GCAUGUGGGUUAGACCAGGUUAGACCAAUAAAAAGCUAUGUCUUUACUUUAUGGCAUGUGCUUUUCUCCACCGGAGGAGAGAGAGGCAAGUGUCUCCCUCAGCUUGUGUC`: “RBNS enrichment (R)” 24.5.

Sample 3
Target: CCNB1, cyclin fold, Cln2 fusion (human)
Technique: yeast growth competition, sequencing
Medium: yeast
Setting: weak parent motif
Relative to: not given
Direction: higher = stronger binding
Starting sequence: viral docking peptide; CKVKRKLFGSENI
Under “normalised enrichment score”, `I13A` is recorded as 1.98.
Under “normalised enrichment score”, `K4A` is recorded as 1.21.
`R5K`: “normalised enrichment score” -0.00453.
For `F8L`, “normalised enrichment score” read 0.236.
Under “normalised enrichment score”, `N12A` is recorded as 1.06.
Under “normalised enrichment score”, `R5A L7A` is recorded as 0.203.
`R5A` — result for “normalised enrichment score”: 1.17.
Under “normalised enrichment score”, `S10A` is recorded as 0.711.
For `K2A`, “normalised enrichment score” read 1.67.
`G9A`: “normalised enrichment score” 1.31.

Further values, each from its own experiment
For COc1cc(N[C@@H]2CCCC[C@]2(O)C(F)(F)F)ccc1F, the inhibition was 15.6% (Sodium-dependent serotonin transporter (SLC6A4, Homo sapiens, UniProt P31645); ligand displacement; 10 µM).

Repeated from above (sample 2):
`AGGAAAACCAUGACAGGCAAAUGCAUUUCCUCUGGAGUUUGAGACCCUGACAAACAACAGGUGGCAUCUGGUGUGCUGUUCUUGAGUUUUCGUUUAGGAUUAGUUGAGUU` — result for “RBNS enrichment (R)”: 0.448.
`CUGUUGGAAAGGGAAAAAUUCACCAUAUCCAAGGGGAGAGACGAUGGGCUGGGUUUGUUUACUCCAACUUCCCUUCUACACCCCUCCUGCAGGACAGUACGAUUUGGGGA` — result for “RBNS enrichment (R)”: 0.354.
For `GUAAGGCUAGAGCCCAGGUCUGCCGACACCCUGUGCUUGUUGCACACUUGAUUUGCUAAGGCUGGAGACAGGCACCAUUGCCAUGGGGCUGGUCCUAGUCACUGGCCGAG`, “RBNS enrichment (R)” read 0.483.
For `GCAGGAACCCUGGAAGAGAAGCGCACAUUUGGGAAGAGCACAUGCAGAUCCAGGCCUGUGGCUCGGCCCCGCUCAGCCCCAUAGUGGGUGGCAGCAGUGCUCUCUCCUGC`, “RBNS enrichment (R)” read 0.389.
